Measured values gathered from unrelated publications.
Lines come from different studies, so protocols differ. ± gives the spread as reported.
F2: Prothrombin (F2, Homo sapiens, UniProt P00734)
Proteasome subunit beta type-9: Proteasome subunit beta type-9 (Homo sapiens, UniProt P28065)
Sequence of UniProt P28065 (whole entry, looked up): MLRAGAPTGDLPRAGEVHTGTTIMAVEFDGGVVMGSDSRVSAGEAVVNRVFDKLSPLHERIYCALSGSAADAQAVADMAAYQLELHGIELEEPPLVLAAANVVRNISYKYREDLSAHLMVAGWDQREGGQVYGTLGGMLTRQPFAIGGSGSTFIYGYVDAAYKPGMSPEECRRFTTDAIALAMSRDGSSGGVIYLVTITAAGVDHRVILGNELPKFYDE
CD274 with PD-1: Programmed cell death 1 ligand 1, with PD-1 (CD274, Homo sapiens, UniProt Q9NZQ7)
Sequence of UniProt Q9NZQ7 (whole entry, looked up): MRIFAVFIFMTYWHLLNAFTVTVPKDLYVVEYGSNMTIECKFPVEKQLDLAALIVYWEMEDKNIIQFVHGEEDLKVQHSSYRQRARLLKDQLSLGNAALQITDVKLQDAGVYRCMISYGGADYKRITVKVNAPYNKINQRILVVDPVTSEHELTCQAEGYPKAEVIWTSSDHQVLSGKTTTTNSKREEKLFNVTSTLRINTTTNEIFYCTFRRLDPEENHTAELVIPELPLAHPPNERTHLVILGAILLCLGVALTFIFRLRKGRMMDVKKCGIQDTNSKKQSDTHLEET
CELF1 del215-384: CUGBP Elav-like family member 1 (CELF1, Homo sapiens, UniProt Q92879, del215-384)
Sequence of UniProt Q92879 (whole entry, unmodified, looked up): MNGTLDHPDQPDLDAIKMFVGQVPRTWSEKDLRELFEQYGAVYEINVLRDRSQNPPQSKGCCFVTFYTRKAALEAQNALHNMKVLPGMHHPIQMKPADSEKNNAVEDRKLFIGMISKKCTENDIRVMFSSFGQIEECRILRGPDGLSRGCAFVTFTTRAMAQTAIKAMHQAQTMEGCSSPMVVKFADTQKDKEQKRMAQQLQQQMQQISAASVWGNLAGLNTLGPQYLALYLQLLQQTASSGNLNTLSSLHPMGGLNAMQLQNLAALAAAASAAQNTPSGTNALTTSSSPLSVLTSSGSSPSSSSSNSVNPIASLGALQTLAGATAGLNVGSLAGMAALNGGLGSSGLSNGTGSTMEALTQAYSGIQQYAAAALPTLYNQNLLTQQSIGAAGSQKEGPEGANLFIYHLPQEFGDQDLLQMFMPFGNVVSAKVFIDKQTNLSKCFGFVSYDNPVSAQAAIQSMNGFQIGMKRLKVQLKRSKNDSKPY
Sequence of UniProt P06756 (whole entry, looked up): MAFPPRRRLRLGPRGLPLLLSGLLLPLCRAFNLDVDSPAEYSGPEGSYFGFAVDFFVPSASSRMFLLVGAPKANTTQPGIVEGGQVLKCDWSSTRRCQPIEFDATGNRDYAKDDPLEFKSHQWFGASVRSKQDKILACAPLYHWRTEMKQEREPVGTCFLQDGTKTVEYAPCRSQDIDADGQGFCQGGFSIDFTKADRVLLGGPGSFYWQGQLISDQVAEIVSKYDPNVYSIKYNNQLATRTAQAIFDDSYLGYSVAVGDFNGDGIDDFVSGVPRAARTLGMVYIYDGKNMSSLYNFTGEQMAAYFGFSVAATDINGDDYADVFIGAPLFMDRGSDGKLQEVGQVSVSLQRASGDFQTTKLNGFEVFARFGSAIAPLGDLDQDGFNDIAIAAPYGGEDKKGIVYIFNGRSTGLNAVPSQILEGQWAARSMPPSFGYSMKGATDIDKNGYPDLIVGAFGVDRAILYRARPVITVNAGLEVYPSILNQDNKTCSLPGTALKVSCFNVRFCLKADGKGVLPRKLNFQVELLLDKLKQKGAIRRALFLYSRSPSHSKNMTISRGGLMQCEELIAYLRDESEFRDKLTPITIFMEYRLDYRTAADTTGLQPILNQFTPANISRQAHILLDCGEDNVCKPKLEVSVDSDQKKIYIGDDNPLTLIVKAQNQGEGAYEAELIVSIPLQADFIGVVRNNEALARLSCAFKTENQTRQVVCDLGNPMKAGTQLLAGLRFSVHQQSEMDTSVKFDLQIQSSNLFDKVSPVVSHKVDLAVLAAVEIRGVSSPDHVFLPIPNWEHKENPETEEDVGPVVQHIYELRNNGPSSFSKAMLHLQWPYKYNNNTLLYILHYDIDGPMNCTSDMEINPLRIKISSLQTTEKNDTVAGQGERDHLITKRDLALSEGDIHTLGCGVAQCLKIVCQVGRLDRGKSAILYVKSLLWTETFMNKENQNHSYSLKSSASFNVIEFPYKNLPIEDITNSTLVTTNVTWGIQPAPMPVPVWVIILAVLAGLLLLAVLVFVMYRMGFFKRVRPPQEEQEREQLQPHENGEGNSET
Sequence of UniProt P27487 (whole entry, looked up): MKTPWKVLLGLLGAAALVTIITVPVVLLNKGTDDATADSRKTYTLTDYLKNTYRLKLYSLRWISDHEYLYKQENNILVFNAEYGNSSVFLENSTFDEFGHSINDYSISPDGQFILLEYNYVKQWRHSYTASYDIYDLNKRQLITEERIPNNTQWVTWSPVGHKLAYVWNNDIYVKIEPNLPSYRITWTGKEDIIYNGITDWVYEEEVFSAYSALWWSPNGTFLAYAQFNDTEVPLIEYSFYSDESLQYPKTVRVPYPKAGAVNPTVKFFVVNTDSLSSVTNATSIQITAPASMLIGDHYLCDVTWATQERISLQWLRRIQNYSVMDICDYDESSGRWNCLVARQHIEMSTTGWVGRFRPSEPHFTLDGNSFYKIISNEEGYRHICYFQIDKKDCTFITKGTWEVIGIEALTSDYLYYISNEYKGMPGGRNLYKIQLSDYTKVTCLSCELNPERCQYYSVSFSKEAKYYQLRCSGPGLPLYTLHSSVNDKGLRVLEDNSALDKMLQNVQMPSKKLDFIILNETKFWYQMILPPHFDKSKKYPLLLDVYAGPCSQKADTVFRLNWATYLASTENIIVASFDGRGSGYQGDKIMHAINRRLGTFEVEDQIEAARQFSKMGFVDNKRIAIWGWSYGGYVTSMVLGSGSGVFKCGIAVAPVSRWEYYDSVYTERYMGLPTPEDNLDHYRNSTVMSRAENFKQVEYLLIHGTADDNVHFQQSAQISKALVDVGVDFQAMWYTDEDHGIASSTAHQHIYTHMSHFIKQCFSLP
Sequence of UniProt Q86X55 (whole entry, looked up): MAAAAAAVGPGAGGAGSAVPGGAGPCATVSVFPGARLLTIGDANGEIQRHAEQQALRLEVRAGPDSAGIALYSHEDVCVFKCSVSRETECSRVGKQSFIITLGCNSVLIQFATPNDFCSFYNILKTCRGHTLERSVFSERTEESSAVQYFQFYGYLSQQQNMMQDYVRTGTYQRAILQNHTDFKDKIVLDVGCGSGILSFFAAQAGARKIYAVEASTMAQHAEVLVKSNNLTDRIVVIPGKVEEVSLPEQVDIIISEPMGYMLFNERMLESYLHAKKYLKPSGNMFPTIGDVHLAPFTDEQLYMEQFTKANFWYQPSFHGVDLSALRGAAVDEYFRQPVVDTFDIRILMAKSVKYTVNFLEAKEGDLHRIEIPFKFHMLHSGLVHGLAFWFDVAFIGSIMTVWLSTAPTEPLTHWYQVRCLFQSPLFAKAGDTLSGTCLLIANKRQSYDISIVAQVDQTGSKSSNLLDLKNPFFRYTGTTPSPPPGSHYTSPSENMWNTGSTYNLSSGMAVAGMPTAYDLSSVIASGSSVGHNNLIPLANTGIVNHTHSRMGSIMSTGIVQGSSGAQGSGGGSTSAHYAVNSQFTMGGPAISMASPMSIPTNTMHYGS
Sequence of UniProt P08648 (whole entry, looked up): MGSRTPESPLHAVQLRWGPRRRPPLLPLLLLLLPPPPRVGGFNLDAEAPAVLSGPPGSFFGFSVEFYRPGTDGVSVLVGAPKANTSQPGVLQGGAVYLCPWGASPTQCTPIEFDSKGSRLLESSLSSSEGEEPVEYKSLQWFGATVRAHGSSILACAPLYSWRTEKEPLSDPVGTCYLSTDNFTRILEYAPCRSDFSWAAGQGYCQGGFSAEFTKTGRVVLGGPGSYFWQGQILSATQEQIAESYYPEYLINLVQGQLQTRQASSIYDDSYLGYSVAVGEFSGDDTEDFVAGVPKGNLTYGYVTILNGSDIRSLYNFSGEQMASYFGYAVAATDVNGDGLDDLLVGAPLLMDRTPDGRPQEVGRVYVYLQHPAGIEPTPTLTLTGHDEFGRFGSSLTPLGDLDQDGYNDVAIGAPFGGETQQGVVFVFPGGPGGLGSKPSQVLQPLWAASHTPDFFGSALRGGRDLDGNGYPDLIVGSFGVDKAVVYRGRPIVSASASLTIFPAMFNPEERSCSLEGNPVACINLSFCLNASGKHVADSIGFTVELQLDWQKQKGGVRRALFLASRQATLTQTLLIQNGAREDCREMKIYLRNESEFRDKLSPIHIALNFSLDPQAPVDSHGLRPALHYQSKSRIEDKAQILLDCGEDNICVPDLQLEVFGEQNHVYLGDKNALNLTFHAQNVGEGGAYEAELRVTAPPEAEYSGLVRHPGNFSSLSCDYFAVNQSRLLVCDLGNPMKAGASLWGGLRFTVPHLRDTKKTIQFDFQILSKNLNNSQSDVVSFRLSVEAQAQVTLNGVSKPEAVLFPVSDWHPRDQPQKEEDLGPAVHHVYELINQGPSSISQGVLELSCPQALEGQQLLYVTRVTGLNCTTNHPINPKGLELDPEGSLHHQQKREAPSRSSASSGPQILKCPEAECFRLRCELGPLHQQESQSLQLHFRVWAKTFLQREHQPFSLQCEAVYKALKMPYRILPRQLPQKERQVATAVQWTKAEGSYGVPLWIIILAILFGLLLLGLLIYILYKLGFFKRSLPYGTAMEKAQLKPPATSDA
Sequence of UniProt P61073 (whole entry, looked up): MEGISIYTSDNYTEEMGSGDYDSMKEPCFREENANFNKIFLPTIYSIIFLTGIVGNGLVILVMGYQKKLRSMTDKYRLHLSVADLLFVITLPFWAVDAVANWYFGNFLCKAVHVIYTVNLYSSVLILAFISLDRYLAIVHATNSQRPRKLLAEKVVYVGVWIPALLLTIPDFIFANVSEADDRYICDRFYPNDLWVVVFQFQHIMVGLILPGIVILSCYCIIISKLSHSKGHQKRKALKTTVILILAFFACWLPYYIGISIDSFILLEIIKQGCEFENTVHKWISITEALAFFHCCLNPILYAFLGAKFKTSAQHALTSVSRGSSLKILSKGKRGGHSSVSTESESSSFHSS
Sequence of UniProt A3M139 (whole entry, looked up): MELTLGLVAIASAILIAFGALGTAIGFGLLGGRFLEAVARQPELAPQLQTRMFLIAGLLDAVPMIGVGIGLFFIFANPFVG

Nc1nc(OCc2ccc(CNC(=O)C(F)(F)F)cc2)c2nc[nH]c2n1 — IC50 (PIN1 (Homo sapiens, UniProt Q13526); DELFIA displacement; 6 h preincubation, 2 h incubation, with: biotinylated D-peptide): > 100000 nM
COc1ccc2c(c1)Cc1c-2nc(N)c(C#N)c1-c1ccc(CO)o1 — IC50 (Thymocyte selection-associated high mobility group box protein TOX, with KAT7 (Homo sapiens, UniProt O94900); TOX-KAT7 binding, inhibitor, ELISA; no inhibition at 10 µM): 6700 nM
COc1cccc(NC(=O)Nc2ccccc2O)c1 — IC50 (SRPK3 (Homo sapiens, UniProt Q9UPE1); enzyme activity, inhibitor, FRET): 5600 nM
CC1=CC(C)=[N+]2C1=Cc1ccc(CCC(=O)N3CCN(c4ccc(C(=O)N[C@H]5CC[C@H](Oc6ccc(C#N)c(Cl)c6)CC5)nn4)CC3)n1[B-]2(F)F — IC50 (Androgen receptor (Ar, Rattus norvegicus, UniProt P15207); ligand displacement, FP): 13 nM
Cc1ccc(S(=O)(=O)N/N=C/c2ccsc2B(O)O)cc1 — IC50 (F2; enzyme activity, inhibitor): > 100000 nM
COCC(=O)N1CCc2cc(-c3csc(NC(=O)c4cc(OC)cc(OC)c4)n3)ccc21 — IC50 (Scavenger receptor class B member 1 (Mus musculus, UniProt Q61009); HDL binding, enhancer; ldlA[mSR-BI] cells; with: Alexa488-HDL): 35 nM
CC(C)C[C@H](NC(=O)[C@H](Cc1ccc(CN)cc1)NC(=O)[C@H](Cc1ccccc1)N=[N+]=[N-])C(=O)N[C@@H](CC1CC2CCC1C2)C(=O)[C@@]1(C)CO1 (stereo in doubt) — IC50 (Proteasome subunit beta type-9; competitive ABPP; Raji cell lysate): > 10000 nM
Cc1c(COc2cc(OCc3cccc(C#N)c3)c(CNC(CO)CO)cc2Cl)cccc1-c1cccc(OCCCCCCC(=O)NO)c1 — IC50 (CD274 with PD-1; PD-1/PD-L1 binding, inhibitor, HTRF): 51.5 nM
Cc1ccc(N2CCNCC2COc2ccc3c(c2)OCO3)cc1 (centres unmarked) — IC50 (P2X purinoceptor 4 (P2RX4, Homo sapiens, UniProt Q99571); calcium flux, inhibitor, Ca2+ flux; human cells): 2690 ± 1320 nM
S=c1[nH]nc(Cc2ccccc2)[nH]1 — IC50 (CELF1 del215-384; CELF1-RNA binding, inhibitor, fluorescence polarization; 20 nM CELF1, with: 10 nM RNA): 360 ± 40 nM
Cc1c(COc2cc(OCc3cccc(C#N)c3)c(CN3CCCC[C@H]3C(=O)O)cc2Cl)cccc1-c1cccc(OCCCCCCC(=O)NO)c1 — IC50 (CD274 with PD-1; PD-1/PD-L1 binding, inhibitor, HTRF): 456 nM
CCCCCCCCN(Cc1ccc(CNC(=O)OCCOC23CC4CC(C2)CC(C(N)C(=O)N2C(C#N)CC5CC52)(C4)C3)cc1)CC(O)C(O)C(O)C(O)CO (centres unmarked) — IC50 (DPP4 (Homo sapiens, UniProt P27487); enzyme activity, inhibitor; with preincubation): 18 nM
Cc1ncsc1-c1ccc(C(C)NC(=O)C2CC(O)CN2C(=O)C(NC(=O)CCCCCCCCCCN2CCCC(Nc3ncc(Cl)c(Nc4ccccc4S(=O)(=O)C(C)C)n3)C2)C(C)(C)C)cc1 (centres unmarked) — log2 fold change (22Rv1; RNA-seq, refers to: SAMD12 mRNA; concentration not given; baseline: DMSO): -1.2
NS(=O)(=O)c1ccc(NC(=O)C2CCCN(c3ccc(-c4ccco4)nn3)C2)cc1 (centres unmarked) — IC50 (CA9 (Homo sapiens, UniProt Q16790); enzyme activity, inhibitor): 14.1 nM
Fc1ccc2nc(NCCCN[C@@H]3CCOc4c(Cl)cc(Cl)cc43)[nH]c2n1 — IC50 (Methionyl-tRNA synthetase, putative (Trypanosoma brucei brucei, UniProt Q38C91); enzyme activity, inhibitor): < 10 nM
Cc1nc2ccc(Br)cc2c(=O)n1N — IC50 (F2; enzyme activity, inhibitor): 9050 nM
Cc1cc(NC2CCN(C)CC2)ccc1-c1cc2c(N3CCC[C@H](C(=O)NCc4ccc(OC(F)(F)F)cc4)C3)ncnc2[nH]1 — IC50 (BTK (Homo sapiens, UniProt Q06187); enzyme activity, inhibitor, mobility shift): 1430 nM
COC1CN([C@H]2CC[C@H]([C@@]3(C)Oc4c(Cl)cc(C(=O)NCc5c(SC)cc(C)[nH]c5=O)c(C)c4O3)CC2)C1 — log2 fold change (RNA-seq, refers to: RANBP17; human, whole blood; dose not given, 24 h; baseline: pretreatment baseline): 2.62
CC(C)C[C@H](NC(=O)[C@H](Cc1ccc(CN)cc1)NC(=O)[C@H](Cc1ccccc1)N=[N+]=[N-])C(=O)N[C@@H](CC1CCC(C)CC1)C(=O)[C@@]1(C)CO1 (some centres unmarked) — IC50 (Proteasome subunit beta type-9; competitive ABPP; Raji cell lysate): 133 nM
C=CC(=O)Nc1cccc(Cn2ncc3cnc(Nc4cnn(CCOC)c4)nc32)c1 — binding (human VEGFR2; KINOMEscan; 100 nM): 16%
CNC(=S)NCCCC[C@H](NS(=O)(=O)c1ccc(C(=O)NCc2cn(CCCNc3ccc([N+](=O)[O-])c4nonc34)nn2)cc1)C(=O)N[C@@H](CCCNC(=N)N)C(=O)N[C@@H](CC1CCCCC1)C(N)=O — IC50 (SIRT3 (Homo sapiens, UniProt Q9NTG7); enzyme activity, inhibitor, fluorescence): 370 nM
CCN(CC)CC(=O)Nc1cccc(-n2cc(-c3ccc4ccc(-c5cn(-c6cccc(NC(=O)CN(CC)CC)c6)nn5)cc4c3)nn2)c1 — IC50 (FLT3 (Homo sapiens, UniProt P36888, D835Y); enzyme activity, inhibitor): > 10000 nM
CCOc1cc(CN2CC3(CC(N4CCC(C(=O)O)CC4)=NO3)C2)cc(OCC)c1-c1ccc(F)cc1 — IC50 (SSTR5 (Homo sapiens, UniProt P35346, L174A); cAMP level, antagonist, GloSensor; AD293; L174A mutant, bandwidth 4.60, with: CST17 EC80 and forskolin): 5890 nM
Cn1c(-c2cccs2)n[nH]c1=S — IC50 (CELF1 del215-384; CELF1-RNA binding, inhibitor, fluorescence polarization; 20 nM CELF1, with: 10 nM RNA): 550 ± 220 nM
Fc1ccc(Nc2nc(NC3CCCCC3)c3cc(C(F)(F)F)ccc3n2)cc1F — IC50 (ADRB2 (Homo sapiens, UniProt P07550, F133L); β-arrestin2 recruitment, antagonist, BRET; HEK293; mutant F133L, with: isoprenaline 1 µM): 501 nM
CSCCCC/C(=N/OS(=O)(=O)O)S[C@@H]1O[C@H](CO)[C@@H](O)[C@H](O)[C@H]1O — IC50 (PTPN1 (Homo sapiens, UniProt P18031); enzyme activity, inhibitor, absorbance): 6070 nM
Cc1nn(-c2cccc(N)c2)c(=O)c2cnc(Nc3ccc(N4CCNCC4)cc3)nc12 — IC50 (PRKX (Homo sapiens, UniProt P51817); enzyme activity, inhibitor): 1760 nM
O=C(CNC(=O)c1cccc(NC2=NCC(F)(F)CN2)c1)NC[C@H](NC(=O)c1c(Cl)cc(-c2ccccc2)cc1Cl)C(=O)O — IC50 (Integrin alpha-V/beta-5 (Homo sapiens, UniProt P06756+P18084); cell adhesion, inhibitor; SW480; with: vitronectin 1 µg/mL): 100000 nM
CC1(C)C(=O)N=C2C1=C(O)C(=O)c1ccccc12 — IC50 (CARM1 (Homo sapiens, UniProt Q86X55); enzyme activity, inhibitor): 2000 nM
S=C(NCCCN1CCN(CCCNC(=S)NCc2ccccc2)CC1)NCc1ccccc1 — IC50 (CXCR4 (Homo sapiens, UniProt P61073); β-arrestin recruitment, antagonist): 20000 nM
N#Cc1cccc(-c2cc(Cl)c(C(=O)N[C@@H](CNC(=O)CNC(=O)c3cccc(NC(=N)N)c3)C(=O)O)c(Cl)c2)c1 — IC50 (Integrin alpha-5/beta-1 (Homo sapiens, UniProt P05556+P08648); cell adhesion, inhibitor; SW480; with: fibronectin 0.3 µg/mL): 10 nM
CCN1CCC(CCNCc2cc3ccccc3nc2SCc2ccccc2)CC1 — IC50 (atpE/atpB (Acinetobacter baumannii, UniProt A3M139+B2I0Z6); ATP synthesis, inhibitor; Acinetobacter baumannii inverted membrane vesicles; with: NADH): 858 nM

Some of these lines once more:
Fc1ccc(Nc2nc(NC3CCCCC3)c3cc(C(F)(F)F)ccc3n2)cc1F — IC50 (ADRB2 (Homo sapiens, UniProt P07550, F133L); β-arrestin2 recruitment, antagonist, BRET; HEK293; mutant F133L, with: isoprenaline 1 µM): 501 nM
CSCCCC/C(=N/OS(=O)(=O)O)S[C@@H]1O[C@H](CO)[C@@H](O)[C@H](O)[C@H]1O — IC50 (PTPN1 (Homo sapiens, UniProt P18031); enzyme activity, inhibitor, absorbance): 6070 nM
Cc1nn(-c2cccc(N)c2)c(=O)c2cnc(Nc3ccc(N4CCNCC4)cc3)nc12 — IC50 (PRKX (Homo sapiens, UniProt P51817); enzyme activity, inhibitor): 1760 nM
O=C(CNC(=O)c1cccc(NC2=NCC(F)(F)CN2)c1)NC[C@H](NC(=O)c1c(Cl)cc(-c2ccccc2)cc1Cl)C(=O)O — IC50 (Integrin alpha-V/beta-5 (Homo sapiens, UniProt P06756+P18084); cell adhesion, inhibitor; SW480; with: vitronectin 1 µg/mL): 100000 nM
